Measurements of several laboratories.
Every numbered part comes from another study and shows a few of its results, in no order. Changes are numbered by the printed parent chain.

Sample 1 — method: DHFR PCA, deep sequencing; sample: yeast; added: (+)-ABA 58 µM; baseline: wild-type fitted maximum; reading: higher = stronger binding
Target: ABI1, truncated, D143A, DHFR fusion (Arabidopsis thaliana)
Setting: methotrexate growth selection, single substitutions
Starting sequence: PYL1, truncated, DHFR fusion (Arabidopsis thaliana); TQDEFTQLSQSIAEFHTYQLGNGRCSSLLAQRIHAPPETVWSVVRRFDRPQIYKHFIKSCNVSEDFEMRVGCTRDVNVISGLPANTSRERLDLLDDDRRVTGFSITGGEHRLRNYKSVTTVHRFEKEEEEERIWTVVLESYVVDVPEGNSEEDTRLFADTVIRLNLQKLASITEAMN; partner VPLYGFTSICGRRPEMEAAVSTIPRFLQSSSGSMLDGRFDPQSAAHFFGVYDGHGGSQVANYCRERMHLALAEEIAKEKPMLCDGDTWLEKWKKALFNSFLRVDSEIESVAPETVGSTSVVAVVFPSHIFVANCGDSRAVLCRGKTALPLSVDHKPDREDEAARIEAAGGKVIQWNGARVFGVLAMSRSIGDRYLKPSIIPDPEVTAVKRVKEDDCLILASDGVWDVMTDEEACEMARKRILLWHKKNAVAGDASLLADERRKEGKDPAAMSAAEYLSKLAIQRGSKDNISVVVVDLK
| Change | relative binding score [%] |
| --- | --- |
| E89C | -4.79 |
| C25E | -3.74 |
| S140Y | 18.7 |

Sample 2 — method: RNA Bind-n-Seq; molecule type: RNA; sample: in vitro; concentration: not given; baseline: input RNA pool; reading: higher = stronger binding
Target: RING finger protein unkempt homolog, zinc fingers 1-6, GST-SBP tag (UNK, Homo sapiens, UniProt Q9C0B0, residues 30-357)
Setting: RNA with constant flanks, human and mouse sites, ends assumed
All sequences stand within: GGGAGUUCUACAGUCCGACGAUC … CAACAGAGGAUUGAGCAUCA
Construct (chain): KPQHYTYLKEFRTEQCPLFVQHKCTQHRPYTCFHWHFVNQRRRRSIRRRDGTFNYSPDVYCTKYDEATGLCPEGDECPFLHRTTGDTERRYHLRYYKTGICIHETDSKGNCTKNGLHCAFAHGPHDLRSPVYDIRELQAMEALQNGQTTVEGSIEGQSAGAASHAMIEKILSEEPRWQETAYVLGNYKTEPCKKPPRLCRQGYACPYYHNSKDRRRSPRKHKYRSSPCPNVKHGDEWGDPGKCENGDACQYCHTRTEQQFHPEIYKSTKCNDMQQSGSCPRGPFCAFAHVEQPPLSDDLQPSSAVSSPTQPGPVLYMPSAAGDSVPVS
| Strand | bound/input enrichment [ratio] |
| --- | --- |
| AUAGUAUGUUCUCCUGUUCCUAUGUUAAGGGAUCUGACACAGAACACUGUAGUCAGUAUUAAUUUUAAAGACCCACAGUUUGCUGAAGAUUACAUUUUUAAAGCUGUAAUGCUUCCAGGA | 0.332 |
| CCACUUCCAGGACCUAACCCCAUCUUGCCAGGGCGAGGCGGCCCCAAUGACAGAUUUCCCUUUAGACCCAGCAGGGGUCGGCCAACUGAUGGCCGGCUGUCAUUCAUGUGAUUGAUUUGU | 0.318 |
| UUCCCGUUUCUAAUCAGGGUUGUUAAACAUGAGCCUGCGGAAGCAAACCCCUAGCGACUUCUUAAAGCAGAUCAUCGGACGGCCAGUUGUGGUGAAAUUAAAUUCUGGCGUGGAUUAUCG | 0.38 |
| AGCAUGCGGAGCAGGACCAUAGAAGAGGGGAAAGGCACCGGGUUUGCCCACCCCUCACCCACCUGGCCCUCUGUGUCCAUUAGCACUCCCAGUGACGAACCCCUAGAGGGGACCGAAGAC | 0.133 |
| AUAUGACUAGCAAGCUAGCUGUUUUUAAUCUCUUCUGCAAGUUUGGUGAUCCGUGUGGUUUAGUAGAGAUAUUAAAAUUAUUAAAAAUACUAUGUUGAUUUCAGAAGAGACUAGCUUUGU | 11.5 |
| CGGUUUCUUUGCUUUGUGUUCCAUGCAUCUCAUUCUGGCCUCUCCAGAUGGUCUCUUGUGAGAGUCAGGCUGUCCAGGCUGGGAUGCAGAUGGGAACCUCUGACUGACUUGAGGGCAGAA | 0.0976 |
| UCCGGGCAGAAUGAGGAGUCUCCUCGGAAACGAAAAAAGGCCACGGAAGCCAUAGACUCUCUUAGGAAAUCUAAACGUCUUCGGAAUAGAAAGUAAAUUGGAAUGUGGUUCUAGUUCCAG | 4.65 |

Sample 3 — method: protein-binding microarray; molecule type: double-stranded DNA, one strand shown; sample: in vitro; concentration: 250 nM; setting: 60-bp whole probe; added: salmon DNA 0.4 mg/ml; baseline: random background probes; reading: higher = stronger binding; all sequences stand within: GCCTAGCAC … GTCTTGATTCGCTTGACGCTGCTG
Target: Interferon regulatory factor 7, full length, phosphomimetic (IRF7, Homo sapiens, UniProt Q92985, residues 1-503, S101K/S471D/S472D/S475D/S476D/S477D/S483D/S484D/S487D)
Construct (chain): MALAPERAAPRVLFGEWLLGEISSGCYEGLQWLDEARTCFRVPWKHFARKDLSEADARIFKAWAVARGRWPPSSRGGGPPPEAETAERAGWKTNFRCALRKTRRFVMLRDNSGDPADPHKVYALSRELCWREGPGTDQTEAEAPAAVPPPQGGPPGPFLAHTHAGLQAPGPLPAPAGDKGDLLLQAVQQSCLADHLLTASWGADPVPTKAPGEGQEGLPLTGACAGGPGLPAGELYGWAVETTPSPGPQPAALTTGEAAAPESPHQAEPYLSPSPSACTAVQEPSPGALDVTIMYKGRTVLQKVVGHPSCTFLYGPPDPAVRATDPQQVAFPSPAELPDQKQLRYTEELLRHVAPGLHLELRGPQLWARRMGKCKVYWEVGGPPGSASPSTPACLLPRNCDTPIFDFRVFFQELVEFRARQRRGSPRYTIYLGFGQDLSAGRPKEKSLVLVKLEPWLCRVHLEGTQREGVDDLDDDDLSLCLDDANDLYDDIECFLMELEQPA
| Strand | log fluorescence |
| --- | --- |
| GACGGTTTCGGTATCGGCACGTGCTAG | 10.2 z-score |
| GGCGGACTGGGACTGGGGACGTGCTAG | -0.754 z-score |
| CTCGCTATGTTGTCCAGGCTGGTGCTA | -0.317 z-score |
| TTAGATATCAGTCTCGATTCGTGCTAG | 5.12 z-score |
| GACGAATTCAGTATCGAGACGTGCTAG | 0.372 z-score |
| CTTGCTACACATCTCACTCTGTGCTAG | -0.262 z-score |
| TTGGGTATCCTTCTCCTTTAGTGCTAG | 0.25 z-score |

Other studies, line by line
| Molecule | target | assay | system | setting | how to read | quantity | result |
| --- | --- | --- | --- | --- | --- | --- | --- |
| PhoQ, residues 284 288 289 292 302 303 SSCLAV | PhoP, residues 12 14 15 18 19 LYFRQ (Escherichia coli, UniProt P23836) | Sort-seq, refers to: YFP reporter | E. coli | PhoQ-PhoP variant library, added: 10 µM Mg2+ | baseline: high Mg2+ state, higher = stronger signaling | fold induction | 6.77 |

Excerpt of the above (sample 3):
| Strand | log fluorescence |
| --- | --- |
| GGCGGACTGGGACTGGGGACGTGCTAG | -0.754 z-score |
| TTGGGTATCCTTCTCCTTTAGTGCTAG | 0.25 z-score |
| CTTGCTACACATCTCACTCTGTGCTAG | -0.262 z-score |
